Results from different studies.
Each line is one published result; not all experiments were run side by side. Several values in a cell are separate wells, animals, samples, runs or records. Numbers after ± are the reported error.

| SMILES | cell line | test | test system | conditions | how to read | measurement | result |
| --- | --- | --- | --- | --- | --- | --- | --- |
| COc1ccc(/C=C\c2cc(OC)c(OC)c(OC)c2)cc1OP(=O)(O)O | BT-16 | cell viability, MTT |  | 10 µM, 72 h |  | inhibition | 90.4% |
| Cn1cc(-c2ccc(-c3cncc(Cl)c3N3CCC4(CCNC4=O)CC3)cc2)cn1 | COLO 205 | gene expression, microarray, item: PDK4 mRNA |  | concentration not given, 2 h | reference: untreated cells | log2 fold change | -2.26 |
| Cc1cc(Nc2ncc(Cl)c(Nc3ccccc3S(=O)(=O)C(C)C)n2)c(OC(C)C)cc1C1CCNCC1 | CLB-BAR | phosphoproteomics LC-MS/MS, item: MAP1A phosphorylation |  | 200 nM, 60 min | reference: untreated | log2 fold change | -2.38 |
| CC(=O)Nc1cc(Oc2ccc3c(nc(Nc4ccc(F)cc4F)n3C)c2C)ccn1 | MHHCALL4 cells | Western blot, item: JAK2, STAT5, STAT3 |  | concentration not given |  | phosphorylation | inhibited |
| Nc1ncnc2c1ncn2[C@@H]1O[C@H](CO)[C@@H](O)[C@H]1O | activated human T cells | item: orotate |  | 50 µM | reference: DMSO | log2 fold change | 9.6 and 9.5 and 8 |
| CCc1cnc(N2CCC(c3nc(COc4ccc(-n5cnnn5)cc4)cs3)CC2)nc1 | HEK-293T | RNA-seq GSEA, item: HALLMARK_KRAS_SIGNALING_UP |  | concentration not given | direction not given | normalized enrichment score | 0.903 |
| CCCCN1C[C@H](O)[C@@H](O)[C@@H](O)[C@H]1CO | sample B patient fibroblasts | Gb3 level lowering, LC-MS/MS, item: Gb3 d18:1/18:0 |  | 216 h |  | IC50 | 9.9 µM |
| CCn1cc(-c2cc(Cn3ccoc3=N)cc3c2CCN([C@@H](C)c2cc(OC)ccn2)C3=O)c(C(F)(F)F)n1 | C32 | cell growth, inhibitor |  | 120 h |  | EC50 | 2.06 µM |
| COc1ccc2c(c1)c(CC(=O)O)c(C)n2C(=O)c1ccc(Cl)cc1 | Swiss 3T3 | inhibitor, radioimmunoassay |  | concentration not given, added: mastoparan and forskolin |  | cAMP accumulation | inhibited |
| CC(/C=C/C(=O)NO)=C\[C@@H](C)C(=O)c1ccc(N(C)C)cc1 | BT-16 | cell viability, MTT |  | 10 µM, 72 h |  | inhibition | 94.3% |
| Cc1cccc(-c2[nH]c(CNc3ccccc3F)nc2-c2ccc3ncnn3c2)n1 | bone marrow CD138+ myeloma cells | XTT |  | 1 µM, mean of three patients |  | viability | 17% |
| CN(C)c1ccc(C(=O)NCCCCCCC(=O)NO)cc1 | BT-16 | cell viability, MTT |  | 10 µM, 72 h |  | inhibition | 90.4% |
| O=C([O-])c1ccccc1O.[Na+] | mouse bone marrow macrophages |  |  | 3 mM, added: RANKL and, tet-CR4-WHD | reference: RANKL alone | osteoclastogenesis | 43.9% |
| O=C(/C=C/C=C/C=C/C1CCCCC1)NC1=C[C@@](O)(/C=C/C=C/C=C/C(=O)NC2=C(O)CCC2=O)[C@@H]2O[C@@H]2C1=O | MKN-45 | cell growth, CellTiter-Glo |  | 78 h |  | GI50 | 18.6 µM |
| c1cc(CN2CCCNCCNCCCNCC2)ccc1CN1CCCNCCNCCCNCC1 | HepG2-C8 | ARE reporter gene |  | concentration not given, 24 h |  | activity | inactive |
| C[C@H](Nc1ccc2c(c1)OCCn1cc(N3C(=O)OC[C@H]3C(F)F)nc1-2)C(N)=O | CAL-51 | cell growth, CellTiter-Glo |  | 120 h |  | Hill coefficient GR curve | 0.684 |
| CC1(C)CCC(CN2CCN(c3ccc(C(=O)NS(=O)(=O)c4ccc(NCC5CCOCC5)c([N+](=O)[O-])c4)c(Oc4cnc5[nH]ccc5c4)c3)CC2)=C(c2ccc(Cl)cc2)C1 | THP-1 | annexin V/PI flow cytometry, item: annexin V+/PI+ |  | 0.2 µM, 24 h |  | late apoptotic cells | 1.9% |
| COc1ccc(C[C@H](N)C(=O)N[C@H]2[C@@H](O)[C@H](n3cnc4c(N(C)C)ncnc43)O[C@@H]2CO)cc1.Cl.Cl | BT-16 | cell viability, MTT |  | 10 µM, 72 h |  | inhibition | 93.8% |
| CSc1cc(Oc2ccnc3[nH]c(=O)cnc23)ccc1NC(=O)Nc1cc(C(C)(C)C)nn1-c1ccccc1 | patient-derived cell line clone B | RPPA, item: GSK-3β pSer9 | human | 1 µM, 4 h | reference: DMSO | phospho/total ratio | 0.62 |
| COc1cnc2cccc(N3CCc4c(cc(Cn5ccnc5C)cc4-c4cn(C)nc4C(F)(F)F)C3=O)c2c1 | Granta-519 | cell growth, inhibitor |  | 120 h |  | EC50 | > 30 µM |
| Cc1cc(N2CCc3c(c(C)nn3CC34CCC(NC(=O)[C@@H]5COCCN5)(CC3)CC4)C2)c2cnn(C)c2n1 | human PBMC | qRT-PCR, item: IFI44L mRNA |  | 100 nM, added: ssRNA |  | inhibition | 95 ± 2% |

Repeated from above:
| SMILES | cell line | test | test system | conditions | how to read | measurement | result |
| --- | --- | --- | --- | --- | --- | --- | --- |
| Nc1ncnc2c1ncn2[C@@H]1O[C@H](CO)[C@@H](O)[C@H]1O | activated human T cells | item: orotate |  | 50 µM | reference: DMSO | log2 fold change | 9.6 and 9.5 and 8 |
| O=C(/C=C/C=C/C=C/C1CCCCC1)NC1=C[C@@](O)(/C=C/C=C/C=C/C(=O)NC2=C(O)CCC2=O)[C@@H]2O[C@@H]2C1=O | MKN-45 | cell growth, CellTiter-Glo |  | 78 h |  | GI50 | 18.6 µM |
| c1cc(CN2CCCNCCNCCCNCC2)ccc1CN1CCCNCCNCCCNCC1 | HepG2-C8 | ARE reporter gene |  | concentration not given, 24 h |  | activity | inactive |
